Published values of several laboratories.
Numbered parts are unrelated; each lists some results of a single study. Positions count from the first letter of the parent shown.
Chain of UniProt O15294 (whole entry, looked up): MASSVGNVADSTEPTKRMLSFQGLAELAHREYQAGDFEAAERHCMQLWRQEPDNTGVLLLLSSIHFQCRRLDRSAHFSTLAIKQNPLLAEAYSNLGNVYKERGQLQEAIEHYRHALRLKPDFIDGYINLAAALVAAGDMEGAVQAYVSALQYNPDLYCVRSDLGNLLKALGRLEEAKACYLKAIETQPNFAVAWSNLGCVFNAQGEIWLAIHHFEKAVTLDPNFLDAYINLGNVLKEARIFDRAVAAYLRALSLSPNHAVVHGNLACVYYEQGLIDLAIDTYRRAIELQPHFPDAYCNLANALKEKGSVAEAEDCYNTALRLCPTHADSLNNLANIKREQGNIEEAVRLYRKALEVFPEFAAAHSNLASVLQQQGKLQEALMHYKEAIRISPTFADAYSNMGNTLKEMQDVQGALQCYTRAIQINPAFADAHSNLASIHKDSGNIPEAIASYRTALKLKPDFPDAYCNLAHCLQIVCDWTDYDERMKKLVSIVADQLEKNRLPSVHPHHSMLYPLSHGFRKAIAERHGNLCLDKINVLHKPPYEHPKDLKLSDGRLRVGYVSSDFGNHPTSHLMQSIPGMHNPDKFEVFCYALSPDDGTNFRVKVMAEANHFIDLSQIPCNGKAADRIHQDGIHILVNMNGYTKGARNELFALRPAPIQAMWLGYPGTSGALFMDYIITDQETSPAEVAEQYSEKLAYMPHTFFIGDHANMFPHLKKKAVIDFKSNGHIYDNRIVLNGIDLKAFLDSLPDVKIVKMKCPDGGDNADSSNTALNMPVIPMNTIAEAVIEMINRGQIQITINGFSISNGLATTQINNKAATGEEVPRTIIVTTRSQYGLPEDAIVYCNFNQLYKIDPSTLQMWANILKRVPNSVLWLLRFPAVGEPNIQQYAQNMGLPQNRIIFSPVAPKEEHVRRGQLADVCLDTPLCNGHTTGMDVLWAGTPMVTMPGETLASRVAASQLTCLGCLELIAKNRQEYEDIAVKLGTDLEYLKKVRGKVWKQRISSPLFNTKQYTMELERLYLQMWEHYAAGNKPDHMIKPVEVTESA

Sample 1
Target: Ras GTPase-activating protein-binding protein 1, RRM domain (G3BP1, Homo sapiens, UniProt Q13283)
Chain of UniProt Q13283 (whole entry, looked up): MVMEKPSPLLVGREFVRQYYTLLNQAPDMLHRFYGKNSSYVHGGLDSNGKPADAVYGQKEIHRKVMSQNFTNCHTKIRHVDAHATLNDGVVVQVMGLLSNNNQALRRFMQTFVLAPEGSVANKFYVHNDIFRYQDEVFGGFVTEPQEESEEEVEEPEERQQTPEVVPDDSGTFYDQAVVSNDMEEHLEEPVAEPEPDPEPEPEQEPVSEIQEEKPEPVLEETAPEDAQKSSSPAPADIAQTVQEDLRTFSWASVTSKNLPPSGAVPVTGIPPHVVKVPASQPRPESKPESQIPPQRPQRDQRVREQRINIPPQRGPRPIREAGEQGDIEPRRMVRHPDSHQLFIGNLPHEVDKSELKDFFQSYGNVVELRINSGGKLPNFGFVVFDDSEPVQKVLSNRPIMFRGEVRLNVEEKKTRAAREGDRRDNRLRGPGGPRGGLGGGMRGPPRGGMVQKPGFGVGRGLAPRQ
Technique: RNA Bind-n-Seq
Molecule type: RNA
Medium: in vitro
Concentration: 1 µM
Setting: whole 134-nt RNA, ends assumed
Together with: 150 mM KCl
Reference: input library
Direction: higher = stronger binding
All sequences stand within: GGGAGUUCUACAGUCCGACGAUC … UGGAAUUCUCGGGUGUCAAGG
Oligonucleotide	log2 enrichment
CUCAAGUCCUGUGCUACACAUCGUAUGUACCGAAUCGGAAAGGUUUUUGGAGGAAAGUAUUAUGUUACGCCGUUCGGAUCUGCACUUCCA	-0.173
AAGUCCUGUGCUACACAUCGUAUGUACCGAAUCGGGGAAAAAGGGGAGGGGUGGGGAAAGUAUUAUGUUACGCCGUUCGGAUCUGCACUU	0.905
CCUGUGCUACACAUCGUAUGUACCGAAUCAAACCCCCAAACCCCCCCAAAUUUUUUUAAAAAAGUAUUAUGUUACGCCGUUCGGAUCUGC	-0.33
GUCCUGUGCUACACAUCGUAUGUACCGAAUCGGGUGGGUUUUUUUGGGAAAAAAAGGGAAAGUAUUAUGUUACGCCGUUCGGAUCUGCAC	0.265
AAGUCCUGUGCUACACAUCGUAUGUACCGAAUCGGUUUUUGGAAAAAAAGGUUUGGAAAGUAUUAUGUUACGCCGUUCGGAUCUGCACUU	-0.371
UAAUUGAAGAACCCAUUUUGCUCAUUUUAGGCAUCGUUAAAGAAUCUGGAGUGAAGCACAAGGGAUUGAUUGAAAUACCCAAUCUUUCUG	-0.0535
AAGUCCUGUGCUACACAUCGUAUGUACCGAAUCGGUUUGGUUUUUGGUUUUUUUGGAAAGUAUUAUGUUACGCCGUUCGGAUCUGCACUU	-0.178
AGUCCUGUGCUACACAUCGUAUGUACCGAAUCGGGGUUUUUGGGGUGGGGAAAGGGGAAAGUAUUAUGUUACGCCGUUCGGAUCUGCACU	1.05

Sample 2
Target: Sal-like protein 4, full length isoform B (SALL4, Homo sapiens, UniProt Q9UJQ4-2, residues 1-616)
Technique: universal PBM
Molecule type: double-stranded DNA, one strand shown
Medium: in vitro
Concentration: not given
Setting: 8-mer, flanks averaged, mean of replicates
Direction: higher = stronger binding
Residues (chain): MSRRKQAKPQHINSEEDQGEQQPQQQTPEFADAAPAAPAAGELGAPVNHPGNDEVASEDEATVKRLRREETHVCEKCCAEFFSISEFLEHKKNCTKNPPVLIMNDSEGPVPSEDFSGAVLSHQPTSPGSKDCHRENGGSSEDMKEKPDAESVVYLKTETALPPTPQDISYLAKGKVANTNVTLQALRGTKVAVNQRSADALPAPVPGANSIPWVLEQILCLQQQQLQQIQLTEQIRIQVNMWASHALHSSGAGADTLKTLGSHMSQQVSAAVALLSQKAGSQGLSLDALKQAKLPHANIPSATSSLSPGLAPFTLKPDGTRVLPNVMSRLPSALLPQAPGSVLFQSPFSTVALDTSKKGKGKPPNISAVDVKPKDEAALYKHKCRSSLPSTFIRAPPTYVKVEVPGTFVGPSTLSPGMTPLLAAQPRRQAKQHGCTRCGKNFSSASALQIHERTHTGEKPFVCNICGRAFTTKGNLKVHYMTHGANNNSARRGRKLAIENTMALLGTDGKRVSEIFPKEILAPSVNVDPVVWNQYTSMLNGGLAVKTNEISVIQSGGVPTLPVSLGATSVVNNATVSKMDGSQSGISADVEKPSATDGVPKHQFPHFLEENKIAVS
Oligonucleotide	E-score
GCTGCGAC	-0.0709
CACGAAAG	0.0151
CTGTTGGC	-0.184
CTAAACGA	-0.0493
ATCAGCTG	0.0351
AAGAAACT	0.0462
ACACCATC	0.0754
AAATCGCT	0.0343

Sample 3
Target: CCND1, cyclin fold, Cln2 fusion (human)
Technique: yeast growth competition, sequencing
Medium: yeast
Setting: weak parent motif
Reference: not given
Direction: higher = stronger binding
Starting sequence: PKMYT1 docking peptide (human); SFEPRNLLSLFED; partner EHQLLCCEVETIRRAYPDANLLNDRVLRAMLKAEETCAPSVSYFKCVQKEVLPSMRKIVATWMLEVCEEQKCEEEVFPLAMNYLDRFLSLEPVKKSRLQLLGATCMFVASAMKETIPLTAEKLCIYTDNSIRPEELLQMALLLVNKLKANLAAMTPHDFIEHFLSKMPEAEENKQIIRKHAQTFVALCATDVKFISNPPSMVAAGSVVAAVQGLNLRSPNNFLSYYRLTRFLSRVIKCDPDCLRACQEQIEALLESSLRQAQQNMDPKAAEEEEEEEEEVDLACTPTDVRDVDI
Variant	normalised enrichment score
S1Y	-0.377
N6Q	1.08
P4S	1.06
S9Y	1.62
E3Q	0.537
D13C	1.56
L10S	0.93
P4G	0.885

Single results of other studies
Molecule	target	test	system	conditions	scale	quantity	value
SSWPWTMHMHQPSYH	UDP-N-acetylglucosamine--peptide N-acetylglucosaminyltransferase 110 kDa subunit (OGT, Homo sapiens, UniProt O15294)	binding, phage display NGS	peptide	concentration not given, panning round 2	reference: input library	enrichment fold change	5.04

A few entries again (sample 2):
Oligonucleotide	E-score
ACACCATC	0.0754
CACGAAAG	0.0151
